Assay results of several laboratories.
Every numbered part comes from another study and shows a few of its results, in no order. Several values in a cell are separate wells, animals, samples, runs or records.
UniProt P15170, sequence (whole entry, looked up): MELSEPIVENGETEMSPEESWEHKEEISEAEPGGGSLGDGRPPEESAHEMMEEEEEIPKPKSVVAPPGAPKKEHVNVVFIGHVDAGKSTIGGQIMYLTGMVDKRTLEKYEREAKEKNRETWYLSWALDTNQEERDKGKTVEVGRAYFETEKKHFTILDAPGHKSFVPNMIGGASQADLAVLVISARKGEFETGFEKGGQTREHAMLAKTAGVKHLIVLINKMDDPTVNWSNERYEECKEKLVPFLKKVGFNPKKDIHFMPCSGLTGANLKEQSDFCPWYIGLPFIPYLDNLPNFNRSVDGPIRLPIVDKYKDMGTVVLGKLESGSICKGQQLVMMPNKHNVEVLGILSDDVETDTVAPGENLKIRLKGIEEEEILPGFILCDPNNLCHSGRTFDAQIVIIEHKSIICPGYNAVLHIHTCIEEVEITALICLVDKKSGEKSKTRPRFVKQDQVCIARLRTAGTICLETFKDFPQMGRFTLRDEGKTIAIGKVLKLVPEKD
UniProt Q13422, sequence (whole entry, looked up): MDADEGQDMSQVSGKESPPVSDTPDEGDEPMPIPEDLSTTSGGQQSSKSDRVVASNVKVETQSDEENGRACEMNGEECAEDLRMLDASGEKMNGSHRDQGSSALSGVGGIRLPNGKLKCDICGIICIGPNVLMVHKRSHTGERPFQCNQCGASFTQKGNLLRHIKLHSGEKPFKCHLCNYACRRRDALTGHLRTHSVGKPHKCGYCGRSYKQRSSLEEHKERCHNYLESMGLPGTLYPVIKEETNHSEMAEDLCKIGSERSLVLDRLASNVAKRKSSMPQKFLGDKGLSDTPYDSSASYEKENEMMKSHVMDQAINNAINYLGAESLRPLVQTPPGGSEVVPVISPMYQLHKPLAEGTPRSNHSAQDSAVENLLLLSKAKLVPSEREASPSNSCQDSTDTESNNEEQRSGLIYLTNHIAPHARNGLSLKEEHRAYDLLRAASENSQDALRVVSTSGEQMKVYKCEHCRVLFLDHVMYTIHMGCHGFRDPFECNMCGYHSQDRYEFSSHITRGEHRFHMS
UniProt Q96SW2, sequence (whole entry, looked up): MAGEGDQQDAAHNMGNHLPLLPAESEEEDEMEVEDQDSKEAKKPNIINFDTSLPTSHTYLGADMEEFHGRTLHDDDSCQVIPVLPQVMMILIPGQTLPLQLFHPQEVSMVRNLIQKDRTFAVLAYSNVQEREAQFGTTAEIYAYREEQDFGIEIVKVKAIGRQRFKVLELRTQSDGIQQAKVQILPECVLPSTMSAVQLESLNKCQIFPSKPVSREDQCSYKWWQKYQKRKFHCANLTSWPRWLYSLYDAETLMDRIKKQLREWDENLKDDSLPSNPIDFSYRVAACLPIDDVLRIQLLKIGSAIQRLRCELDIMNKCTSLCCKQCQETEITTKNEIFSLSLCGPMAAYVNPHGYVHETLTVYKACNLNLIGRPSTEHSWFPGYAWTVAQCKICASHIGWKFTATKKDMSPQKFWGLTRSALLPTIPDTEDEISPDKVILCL
UniProt Q9UKS7, sequence (whole entry, looked up): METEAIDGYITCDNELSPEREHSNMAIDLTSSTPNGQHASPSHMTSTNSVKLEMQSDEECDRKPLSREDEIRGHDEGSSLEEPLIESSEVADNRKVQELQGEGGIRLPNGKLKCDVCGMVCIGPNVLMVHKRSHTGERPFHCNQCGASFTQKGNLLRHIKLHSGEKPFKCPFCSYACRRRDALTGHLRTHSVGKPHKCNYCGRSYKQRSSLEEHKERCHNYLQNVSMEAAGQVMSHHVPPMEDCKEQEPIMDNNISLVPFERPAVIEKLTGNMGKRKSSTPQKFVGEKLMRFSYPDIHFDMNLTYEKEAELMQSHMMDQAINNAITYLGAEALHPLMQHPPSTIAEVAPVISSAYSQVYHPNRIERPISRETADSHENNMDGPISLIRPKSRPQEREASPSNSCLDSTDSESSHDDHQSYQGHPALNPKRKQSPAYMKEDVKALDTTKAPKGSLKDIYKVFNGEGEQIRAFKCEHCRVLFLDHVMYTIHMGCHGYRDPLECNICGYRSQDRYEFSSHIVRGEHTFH

Series 1
Method: logD(dd/w) and ALogP
Notes: JT method
Endpoint: lipophilic permeability efficiency
CC(C)C[C@@H]1NC(=O)[C@H](C)NC(=O)[C@H](CCC(=O)N2CCCC2)NC(=O)[C@H](CC(C)C)NC(=O)[C@H](C(C)C)NC(=O)[C@H](CC(C)C)NC(=O)[C@@H](CC(C)C)NC1=O: 1.86
CC(C)C[C@@H]1NC(=O)[C@H](C)NC(=O)[C@H](C)NC(=O)[C@H](CCC(=O)N2CCCC2)NC(=O)[C@H](CC(C)C)NC(=O)[C@H](CC(C)C)NC(=O)[C@H](CC(C)C)NC1=O: 1.82
CC(C)C[C@@H]1NC(=O)[C@H](CC(C)C)NC(=O)[C@@H](CC(C)C)NC(=O)[C@@H](C)NC(=O)[C@H](C(C)C)NC(=O)[C@H](C)NC(=O)[C@H](C)NC1=O: 1.67
CC(C)C[C@@H]1NC(=O)[C@H](C(C)C)NC(=O)[C@H](C)NC(=O)[C@H](CC(C)C)NC(=O)[C@H](C(C)C)NC(=O)[C@H](CC(C)C)NC(=O)[C@@H](CC(C)C)NC1=O: 2.74
CC(C)C[C@@H]1NC(=O)[C@H](C)NC(=O)[C@@H](CC(C)C)NC(=O)[C@H](CC(C)C)NC(=O)[C@@H](Cc2cscn2)NC(=O)[C@H](CC(C)C)NC(=O)[C@@H](CC(C)C)NC1=O: 0.792
CC(C)C[C@@H]1NC(=O)[C@H](CC(C)C)NC(=O)[C@@H](C(C)C)NC(=O)[C@H](CC(C)C)NC(=O)[C@@H](Cc2cscn2)NC(=O)[C@H](Cc2cscn2)NC(=O)[C@H](CCC(=O)N2CCCC2)NC1=O: 2.13
CC(C)C[C@@H]1NC(=O)[C@H](Cc2cscn2)NC(=O)[C@H](CC(C)C)NC(=O)[C@H](C(C)C)NC(=O)[C@H](CC(C)C)NC(=O)[C@@H](CC(C)C)NC(=O)[C@H](CC(C)C)NC1=O: 2.41
CC(C)C[C@@H]1NC(=O)[C@H](Cc2cscn2)NC(=O)[C@H](CCC(=O)N2CCCC2)NC(=O)[C@H](CC(C)C)NC(=O)[C@@H](CCC(=O)N2CCCC2)NC(=O)[C@H](CC(C)C)NC(=O)[C@@H](CC(C)C)NC1=O: 2.15

Series 2
SMILES: O=C1CCC(N2Cc3cc(C4CCN(Cc5ccccc5)CC4)ccc3C2=O)C(=O)N1 (stereo not drawn)
Mode: degrader
Endpoint: remaining protein
Zinc finger protein Aiolos: Zinc finger protein Aiolos (Homo sapiens, UniProt Q9UKT9)
UniProt Q9UKT9, sequence (whole entry, looked up): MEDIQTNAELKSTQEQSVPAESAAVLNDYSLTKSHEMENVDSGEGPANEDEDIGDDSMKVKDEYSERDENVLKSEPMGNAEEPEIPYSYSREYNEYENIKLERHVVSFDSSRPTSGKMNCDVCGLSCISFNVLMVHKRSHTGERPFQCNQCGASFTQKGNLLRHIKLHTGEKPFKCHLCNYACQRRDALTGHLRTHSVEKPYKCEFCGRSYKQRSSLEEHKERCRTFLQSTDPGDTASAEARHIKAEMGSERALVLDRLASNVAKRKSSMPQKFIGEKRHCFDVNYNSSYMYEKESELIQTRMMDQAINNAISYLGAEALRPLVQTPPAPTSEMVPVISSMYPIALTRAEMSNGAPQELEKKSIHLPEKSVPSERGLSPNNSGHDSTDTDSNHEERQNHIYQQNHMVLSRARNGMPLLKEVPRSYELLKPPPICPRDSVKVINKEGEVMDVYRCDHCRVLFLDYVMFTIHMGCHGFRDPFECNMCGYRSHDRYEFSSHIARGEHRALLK
SALL4: Sal-like protein 4 (SALL4, Homo sapiens, UniProt Q9UJQ4)
UniProt Q9UJQ4, sequence (whole entry, looked up): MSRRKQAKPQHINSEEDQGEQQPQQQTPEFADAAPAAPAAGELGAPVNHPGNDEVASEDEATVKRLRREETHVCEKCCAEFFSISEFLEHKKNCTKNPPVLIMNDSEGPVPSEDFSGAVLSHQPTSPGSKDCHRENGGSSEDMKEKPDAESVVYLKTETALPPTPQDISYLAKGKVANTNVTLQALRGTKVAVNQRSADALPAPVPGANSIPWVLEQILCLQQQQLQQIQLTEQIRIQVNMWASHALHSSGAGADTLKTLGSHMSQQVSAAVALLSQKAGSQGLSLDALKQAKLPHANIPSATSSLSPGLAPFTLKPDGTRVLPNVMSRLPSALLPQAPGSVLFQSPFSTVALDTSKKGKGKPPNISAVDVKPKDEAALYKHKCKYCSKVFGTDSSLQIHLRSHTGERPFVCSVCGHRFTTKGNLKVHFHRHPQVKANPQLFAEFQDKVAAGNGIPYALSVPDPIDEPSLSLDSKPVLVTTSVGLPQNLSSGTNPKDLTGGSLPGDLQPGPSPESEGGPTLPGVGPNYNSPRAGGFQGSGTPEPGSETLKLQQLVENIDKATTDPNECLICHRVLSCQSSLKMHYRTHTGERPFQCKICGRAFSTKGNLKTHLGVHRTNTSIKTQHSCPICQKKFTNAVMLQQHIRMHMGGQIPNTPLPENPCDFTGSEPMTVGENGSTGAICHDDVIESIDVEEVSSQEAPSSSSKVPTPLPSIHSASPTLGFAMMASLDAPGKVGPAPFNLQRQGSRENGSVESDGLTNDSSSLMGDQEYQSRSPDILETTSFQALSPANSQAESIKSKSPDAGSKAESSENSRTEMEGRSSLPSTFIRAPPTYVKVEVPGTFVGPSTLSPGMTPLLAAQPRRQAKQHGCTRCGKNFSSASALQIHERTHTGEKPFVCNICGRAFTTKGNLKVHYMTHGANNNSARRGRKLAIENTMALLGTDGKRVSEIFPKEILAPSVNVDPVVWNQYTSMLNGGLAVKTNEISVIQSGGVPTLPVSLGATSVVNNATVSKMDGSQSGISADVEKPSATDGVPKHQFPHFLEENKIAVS
DNA-binding protein Ikaros (Homo sapiens, UniProt Q13422); HiBiT; HEK293; 0.04115 µM, 6 h: 88.8%
Eukaryotic peptide chain release factor GTP-binding subunit ERF3A (GSPT1, Homo sapiens, UniProt P15170); HiBiT; HEK293; 0.01372 µM: 111% and 94.7%
Zinc finger protein Aiolos; HiBiT; HEK293; 0.004572 µM, 6 h: 83.8%
Zinc finger protein Aiolos; HiBiT; HEK293; 10 µM: 79.8% and 83.8%
CRBN/Zinc finger protein Helios (Homo sapiens, UniProt Q96SW2+Q9UKS7); flow cytometry; primary human regulatory T cells; 0.3333 µM, 3 h: 92%
SALL4; HiBiT; HEK293; 0.1235 µM, 6 h: 56.5%
SALL4; HiBiT; HEK293; 0.0005081 µM, 6 h: 77.9%

Series 3
Target: Diamine acetyltransferase 1 (Homo sapiens, UniProt P21673)
Mode: inhibitor
Concentration: 10 µM
Relative to: control
Endpoint: remaining activity
Construct (P21673 1-171): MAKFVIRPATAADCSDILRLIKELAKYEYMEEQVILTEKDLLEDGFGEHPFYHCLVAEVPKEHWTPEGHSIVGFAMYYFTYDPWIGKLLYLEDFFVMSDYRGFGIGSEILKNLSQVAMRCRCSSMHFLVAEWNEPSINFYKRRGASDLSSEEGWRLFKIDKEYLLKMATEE
O=C[C@H](O)[C@@H](O)[C@H](O[C@H]1O[C@H](CO)[C@@H](O[C@H]2O[C@H](CO)[C@@H](O)[C@H](O)[C@H]2O)[C@H](O)[C@H]1O)[C@H](O)CO: 97.6%
CCCCCCCCCCCCCCCCCCCCCCCCCC(=O)O: 104%
C[C@@H]1O[C@@H](O[C@H]2[C@H](O[C@H]3CC[C@@]4(C)[C@@H](CC[C@]5(C)[C@@H]4CC=C4[C@@H]6CC(C)(C)CC[C@]6(C(=O)O[C@@H]6O[C@H](CO[C@@H]7O[C@H](CO)[C@@H](O)[C@H](O)[C@H]7O)[C@@H](O)[C@H](O)[C@H]6O)CC[C@]45C)[C@]3(C)CO)OC[C@H](O)[C@@H]2O)[C@H](O)[C@H](O[C@@H]2O[C@H](CO)[C@@H](O[C@@H]3O[C@H](CO)[C@@H](O)[C@H](O)[C@H]3O)[C@H](O)[C@H]2O)[C@H]1O: 92%
OCCc1ccc(O)c(O)c1: 84.1%
CC(C)=C1C/C=C(\C)CC/C=C(\C)CC1=O: 83.9%
O=c1c(O[C@@H]2O[C@H](CO)[C@@H](O)[C@H](O)[C@H]2O)c(-c2ccc(O)cc2)oc2cc(O)cc(O)c12: 115%
COc1cc2c3c(cc4ccccc4c3c1OC)N(C)CC2: 81.6%
CCOC(=O)c1cc(O)c(O)c(O)c1: 97.5%

Series 4
Target: Beta-3 adrenergic receptor (ADRB3, Homo sapiens, UniProt P13945)
UniProt P13945, sequence (whole entry, looked up): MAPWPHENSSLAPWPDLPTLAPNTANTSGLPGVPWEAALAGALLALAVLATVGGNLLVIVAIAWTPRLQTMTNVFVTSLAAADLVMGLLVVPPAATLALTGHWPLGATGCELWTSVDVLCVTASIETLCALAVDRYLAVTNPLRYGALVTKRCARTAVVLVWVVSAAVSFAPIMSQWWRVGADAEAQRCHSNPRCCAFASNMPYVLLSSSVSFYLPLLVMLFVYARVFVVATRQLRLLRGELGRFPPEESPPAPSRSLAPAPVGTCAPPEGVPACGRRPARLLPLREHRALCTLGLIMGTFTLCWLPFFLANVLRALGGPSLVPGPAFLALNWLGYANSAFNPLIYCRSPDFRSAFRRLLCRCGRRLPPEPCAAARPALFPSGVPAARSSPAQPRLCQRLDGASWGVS
Read-out: ligand displacement
Concentration: 10 µM
Endpoint: inhibition
O=S(=O)(NC1CCC(c2cc(F)ccc2F)(S(=O)(=O)c2ccc(Cl)cc2)CC1)C(F)(F)F (stereo not drawn): 13.5%
Cc1ccccc1Oc1cc(-n2c(=O)cc(C(F)(F)F)[nH]c2=O)c2ccccc2c1Cl: 22.9%
O=C(NS(=O)(=O)c1ccc(NCC2CCOCC2)c([N+](=O)[O-])c1)c1ccc(N2CCN(Cc3ccc(C(F)(F)F)cc3-c3ccc(Cl)cc3)CC2)cc1Oc1cnc2[nH]ccc2c1: -21.1%
Cc1ccc(-c2cnc([C@@]3(O)CC[C@H](C(=O)O)C(C)(C)C3)s2)cc1Nc1cccc(C(F)(F)F)n1: -6.54%
O=C(Nc1ccc(Oc2ccc(F)cc2)cc1)N1CCc2ncccc2[C@H]1c1ccc(F)cc1: 29.4%
C[C@H](c1ccnc(Nc2nc3ccc(-c4cc(N(C)C)ncn4)cc3[nH]2)c1)N1CCN(C(=O)CC(F)(F)F)CC1: 30.4%
COc1cccc(NC(=O)c2nc3scc(CN(C)Cc4ccccc4)c3c(=O)[nH]2)c1: -4.01%
C[C@H](c1ccc(F)cc1)N(Cc1cccc(C(=O)O)c1)C(=O)c1cnc2ccccc2c1: 2.81%
C[C@@H]1CN(c2cc(-c3n[nH]c4ccc(OC5(C)CC5)cc34)ncn2)C[C@H](C)O1: -5.99%
Nc1nc(NCc2ccccc2)nc(-c2cccc(CO)c2)n1: 17.8%
CS(=O)(=O)N1CCCC(NC(=O)[C@H](CCC2CCCCC2)NC(=O)c2ccc(CNC(=O)c3cnc4ccccn34)cc2)C1 (stereo partly drawn): -12.6%
O=C1NC(c2ccccn2)Sc2ccccc21 (stereo not drawn): 32.4%
Cn1nc(C(=O)NCc2ccc(C(=O)O)cc2)cc1-c1ccc2[nH]ccc2c1: 2.13%
CNC(=O)Nc1ccc2c(c1)CC[C@]21OC(=O)N(CC(=O)N(Cc2ccc(F)cc2)[C@@H](C)C(F)(F)F)C1=O: -13.9%
Nc1cnc(N2CCc3cc(S(=O)(=O)Nc4c(F)cc(Cl)cc4F)cc(N4CCCC4=O)c32)nc1: -2.69%
C[C@@H](c1cccc(C#N)c1)n1cc(Cl)cc(C(N)=O)c1=N: -4.49%

Repeated from above (series 4):
Cc1ccc(-c2cnc([C@@]3(O)CC[C@H](C(=O)O)C(C)(C)C3)s2)cc1Nc1cccc(C(F)(F)F)n1: -6.54%
C[C@@H]1CN(c2cc(-c3n[nH]c4ccc(OC5(C)CC5)cc34)ncn2)C[C@H](C)O1: -5.99%
CNC(=O)Nc1ccc2c(c1)CC[C@]21OC(=O)N(CC(=O)N(Cc2ccc(F)cc2)[C@@H](C)C(F)(F)F)C1=O: -13.9%
Cn1nc(C(=O)NCc2ccc(C(=O)O)cc2)cc1-c1ccc2[nH]ccc2c1: 2.13%
